Results pooled from the literature.
Numbered parts are unrelated; each lists some results of a single study.
Sequence of UniProt P20794 (whole entry, looked up): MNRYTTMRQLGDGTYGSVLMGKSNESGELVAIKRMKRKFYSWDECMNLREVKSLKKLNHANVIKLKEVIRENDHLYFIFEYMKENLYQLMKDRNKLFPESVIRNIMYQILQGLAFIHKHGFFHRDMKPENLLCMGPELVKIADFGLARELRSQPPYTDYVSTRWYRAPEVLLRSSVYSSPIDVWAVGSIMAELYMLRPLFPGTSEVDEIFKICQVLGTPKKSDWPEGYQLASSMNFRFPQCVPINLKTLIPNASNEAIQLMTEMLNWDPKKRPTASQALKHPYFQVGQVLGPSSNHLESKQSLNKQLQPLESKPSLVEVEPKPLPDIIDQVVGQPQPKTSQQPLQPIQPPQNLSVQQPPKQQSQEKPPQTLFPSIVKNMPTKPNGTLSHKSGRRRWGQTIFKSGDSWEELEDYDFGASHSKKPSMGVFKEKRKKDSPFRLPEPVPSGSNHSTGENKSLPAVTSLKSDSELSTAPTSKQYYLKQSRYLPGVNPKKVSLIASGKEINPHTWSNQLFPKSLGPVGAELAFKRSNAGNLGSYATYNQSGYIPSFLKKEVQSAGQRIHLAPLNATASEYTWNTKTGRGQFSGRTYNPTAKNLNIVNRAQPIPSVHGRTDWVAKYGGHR
Sequence of UniProt P06493 (whole entry, looked up): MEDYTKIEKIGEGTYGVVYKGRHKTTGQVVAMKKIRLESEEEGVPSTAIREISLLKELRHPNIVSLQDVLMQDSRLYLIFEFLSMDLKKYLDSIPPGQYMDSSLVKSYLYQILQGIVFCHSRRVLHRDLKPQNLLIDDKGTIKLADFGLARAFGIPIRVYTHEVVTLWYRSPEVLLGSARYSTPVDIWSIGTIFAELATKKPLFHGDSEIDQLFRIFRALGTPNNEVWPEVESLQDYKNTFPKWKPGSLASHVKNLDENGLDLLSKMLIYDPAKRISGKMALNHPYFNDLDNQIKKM
Sequence of UniProt P49761 (whole entry, looked up): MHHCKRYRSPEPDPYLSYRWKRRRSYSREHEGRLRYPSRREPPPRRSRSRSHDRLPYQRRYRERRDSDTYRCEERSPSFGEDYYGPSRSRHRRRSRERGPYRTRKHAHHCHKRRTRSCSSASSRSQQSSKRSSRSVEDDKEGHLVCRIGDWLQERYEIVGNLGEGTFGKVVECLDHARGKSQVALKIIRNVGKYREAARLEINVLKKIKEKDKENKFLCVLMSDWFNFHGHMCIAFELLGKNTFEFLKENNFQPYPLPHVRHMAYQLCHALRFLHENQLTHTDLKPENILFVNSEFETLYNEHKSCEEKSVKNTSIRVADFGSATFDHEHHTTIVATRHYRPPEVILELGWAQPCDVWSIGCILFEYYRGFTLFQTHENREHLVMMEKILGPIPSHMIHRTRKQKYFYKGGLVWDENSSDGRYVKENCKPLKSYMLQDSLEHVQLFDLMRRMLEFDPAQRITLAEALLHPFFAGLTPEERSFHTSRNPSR
Sequence of UniProt O60331 (whole entry, looked up): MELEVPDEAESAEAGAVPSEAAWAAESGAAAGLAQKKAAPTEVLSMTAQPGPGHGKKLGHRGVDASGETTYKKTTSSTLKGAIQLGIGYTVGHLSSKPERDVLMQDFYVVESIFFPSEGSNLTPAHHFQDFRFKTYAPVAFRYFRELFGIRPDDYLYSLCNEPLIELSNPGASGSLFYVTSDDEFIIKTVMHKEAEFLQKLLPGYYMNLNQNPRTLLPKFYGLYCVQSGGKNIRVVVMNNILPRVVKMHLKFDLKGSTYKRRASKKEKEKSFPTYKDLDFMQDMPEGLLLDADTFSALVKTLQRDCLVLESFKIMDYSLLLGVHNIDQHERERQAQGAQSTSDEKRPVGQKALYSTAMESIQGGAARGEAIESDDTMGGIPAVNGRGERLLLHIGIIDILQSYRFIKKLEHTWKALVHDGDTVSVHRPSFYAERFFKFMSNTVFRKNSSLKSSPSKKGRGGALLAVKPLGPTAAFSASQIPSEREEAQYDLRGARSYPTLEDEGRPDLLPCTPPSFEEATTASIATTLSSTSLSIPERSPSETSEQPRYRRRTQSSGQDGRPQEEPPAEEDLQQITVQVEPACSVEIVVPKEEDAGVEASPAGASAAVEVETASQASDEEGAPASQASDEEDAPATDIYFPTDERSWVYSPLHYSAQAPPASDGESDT
Sequence of UniProt P31751 (whole entry, looked up): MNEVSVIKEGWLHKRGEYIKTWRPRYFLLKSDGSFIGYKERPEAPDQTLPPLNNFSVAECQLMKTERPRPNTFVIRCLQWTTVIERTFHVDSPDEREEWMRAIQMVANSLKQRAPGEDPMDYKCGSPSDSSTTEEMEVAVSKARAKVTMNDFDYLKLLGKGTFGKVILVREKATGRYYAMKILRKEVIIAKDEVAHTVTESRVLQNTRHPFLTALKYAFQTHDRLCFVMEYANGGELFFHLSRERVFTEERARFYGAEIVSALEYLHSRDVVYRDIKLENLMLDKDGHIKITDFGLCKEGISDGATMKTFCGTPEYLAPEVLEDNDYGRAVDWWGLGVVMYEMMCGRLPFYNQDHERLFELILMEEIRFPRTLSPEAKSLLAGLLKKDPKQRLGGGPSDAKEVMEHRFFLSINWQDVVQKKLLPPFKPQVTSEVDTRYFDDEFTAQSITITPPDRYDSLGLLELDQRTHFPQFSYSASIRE
Sequence of UniProt P54764 (whole entry, looked up): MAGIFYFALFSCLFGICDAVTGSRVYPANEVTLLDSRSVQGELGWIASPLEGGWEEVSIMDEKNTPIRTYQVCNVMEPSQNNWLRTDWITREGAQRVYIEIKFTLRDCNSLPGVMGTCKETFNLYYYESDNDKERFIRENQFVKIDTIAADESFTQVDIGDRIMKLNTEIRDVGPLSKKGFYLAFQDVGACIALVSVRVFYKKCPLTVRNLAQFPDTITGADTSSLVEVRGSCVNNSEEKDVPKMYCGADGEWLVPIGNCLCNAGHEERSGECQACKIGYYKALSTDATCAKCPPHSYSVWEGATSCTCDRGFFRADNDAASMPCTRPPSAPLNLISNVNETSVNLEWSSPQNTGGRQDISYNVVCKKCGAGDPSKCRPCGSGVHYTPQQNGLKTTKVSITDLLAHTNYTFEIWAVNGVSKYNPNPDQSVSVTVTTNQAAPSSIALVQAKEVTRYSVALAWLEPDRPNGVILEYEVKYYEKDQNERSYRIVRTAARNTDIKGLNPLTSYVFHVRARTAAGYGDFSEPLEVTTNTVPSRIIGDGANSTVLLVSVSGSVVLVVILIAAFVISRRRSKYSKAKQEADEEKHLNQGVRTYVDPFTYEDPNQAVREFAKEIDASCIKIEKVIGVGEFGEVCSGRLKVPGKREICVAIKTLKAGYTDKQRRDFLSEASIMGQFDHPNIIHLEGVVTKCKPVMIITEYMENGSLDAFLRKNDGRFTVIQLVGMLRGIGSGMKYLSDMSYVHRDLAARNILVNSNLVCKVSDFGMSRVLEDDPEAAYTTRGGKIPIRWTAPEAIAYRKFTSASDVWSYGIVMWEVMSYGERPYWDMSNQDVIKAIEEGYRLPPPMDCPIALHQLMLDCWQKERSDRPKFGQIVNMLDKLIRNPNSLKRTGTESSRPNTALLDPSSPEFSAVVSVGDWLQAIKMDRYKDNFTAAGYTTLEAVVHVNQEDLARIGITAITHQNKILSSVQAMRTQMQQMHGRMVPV
Sequence of UniProt Q9Y6M4 (whole entry, looked up): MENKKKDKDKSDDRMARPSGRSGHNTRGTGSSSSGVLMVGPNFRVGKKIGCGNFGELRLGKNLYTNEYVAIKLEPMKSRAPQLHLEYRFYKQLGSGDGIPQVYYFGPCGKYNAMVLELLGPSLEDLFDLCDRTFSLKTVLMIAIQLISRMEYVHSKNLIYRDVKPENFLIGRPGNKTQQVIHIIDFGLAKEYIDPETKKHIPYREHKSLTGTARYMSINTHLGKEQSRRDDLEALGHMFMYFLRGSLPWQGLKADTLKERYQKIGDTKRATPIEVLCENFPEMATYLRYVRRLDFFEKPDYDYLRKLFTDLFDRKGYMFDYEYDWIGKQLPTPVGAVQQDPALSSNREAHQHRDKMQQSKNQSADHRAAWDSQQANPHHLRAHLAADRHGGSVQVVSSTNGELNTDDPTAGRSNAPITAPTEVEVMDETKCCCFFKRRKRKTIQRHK

Block 1 — effect on: cell-free assay; method: competition with immobilised ligand; tested at: 1 µM
Structure (SMILES): C[C@@H]1CN(c2cc(-c3nn(C)c4ccc(OC5(C)CC5)cc34)ncn2)C[C@H](C)O1
It gave 98% for remaining binding (PIP4K2C (Homo sapiens, UniProt Q8TBX8)).
TRPM6 (Homo sapiens, UniProt Q9BX84) — remaining binding: 85%.
It gave 100% for remaining binding (CSNK1G3 (Homo sapiens, UniProt Q9Y6M4)).
The remaining binding was 90% (PIP5K1C (Homo sapiens, UniProt O60331)).
The remaining binding was 100% (MARK1 (Homo sapiens, UniProt Q9P0L2)).
For ACVRL1 (Homo sapiens, UniProt P37023): remaining binding read 63%.
For MAPK1 (Homo sapiens, UniProt P28482): remaining binding read 100%.
The remaining binding was 100% (FGFR3 (Homo sapiens, UniProt P22607)).
For RIOK1 (Homo sapiens, UniProt Q9BRS2): remaining binding read 89%.
For NEK2 (Homo sapiens, UniProt P51955): remaining binding read 100%.
For PLK4 (Homo sapiens, UniProt O00444): remaining binding read 65%.
SLK (Homo sapiens, UniProt Q9H2G2) — remaining binding: 100%.
The remaining binding was 87% (FLT3 (Homo sapiens, UniProt P36888, F691L/ITD)).
For EPHA4 (Homo sapiens, UniProt P54764): remaining binding read 100%.
For CDK18 (Homo sapiens, UniProt Q07002): remaining binding read 100%.
For MAK (Homo sapiens, UniProt P20794): remaining binding read 100%.
It gave 96% for remaining binding (PIK3CA (Homo sapiens, UniProt P42336, M1043I)).
The remaining binding was 100% (MAP3K20 (Homo sapiens, UniProt Q9NYL2)).

Block 2 — effect on: enzyme activity; action: inhibitor; tested at: 0.5 µM; reference: control
SMILES: c1cc(-c2cnn3cc(-c4ccc(OCCN5CCCCC5)cc4)cnc23)ccn1
For CAMK4 (Homo sapiens, UniProt Q16566): remaining activity read 92%.
The remaining activity was 22.2% (KDR (Homo sapiens, UniProt P35968)).
For AKT2 (Homo sapiens, UniProt P31751): remaining activity read 87.6%.
The remaining activity was 94.1% (DCLK2 (Homo sapiens, UniProt Q8N568)).
It gave 36.7% for remaining activity (Cyclin-dependent kinase 9, with cyclin K (CDK9, Homo sapiens, UniProt P50750)).
PNCK (Homo sapiens, UniProt Q6P2M8) — remaining activity: 100%.
It gave 98.8% for remaining activity (MAP2K1 (Homo sapiens, UniProt Q02750)).
For PLK3 (Homo sapiens, UniProt Q9H4B4): remaining activity read 94%.
The remaining activity was 92.2% (Cyclin-dependent kinase 1, with cyclin A (CDK1, Homo sapiens, UniProt P06493)).
CLK3 (Homo sapiens, UniProt P49761) — remaining activity: 92.2%.
MINK1 (Homo sapiens, UniProt Q8N4C8) — remaining activity: 59.4%.
It gave 97.9% for remaining activity (GRK4 (Homo sapiens, UniProt P32298)).
For MAPK1 (Homo sapiens, UniProt P28482): remaining activity read 99.3%.

Single results of other studies
For `ZBBX (Homo sapiens, UniProt A8MT70)`, cross-linked residues read “K213 to D182” (DYNC2I1 (Homo sapiens, UniProt Q8WVS4); cross-linking MS; cell fractions; with: DMTMM).
For `CN(C)CCOC(c1ccccc1)c1ccccc1`, “nuclear SOX9 intensity” read 113 % of DMSO (mouse MPNST tumor cells; high-content immunofluorescence imaging, measured: nuclear SOX9; 10 µM, 12 h, mean of 2 replicates; reference: DMSO control, higher = more nuclear SOX9).
`NDUFS3 (Homo sapiens, UniProt O75489)`: cross-linked residues “E63 to K80” (NDUFA7 (Homo sapiens, UniProt O95182); cross-linking MS; cell fractions; with: DMTMM).
For `NPLOC4 (Homo sapiens, UniProt Q8TAT6)`, cross-linked residues read “K404 to K267” (UFD1 (Homo sapiens, UniProt Q92890); cross-linking MS; cell fractions; with: DSSO).
Under cross-linked residues, `KIF4A (Homo sapiens, UniProt O95239)` is recorded as “K575 to S61” (GTF2E1 (Homo sapiens, UniProt P29083); cross-linking MS; cell fractions; with: DSSO).

A few entries again (block 2):
It gave 97.9% for remaining activity (GRK4 (Homo sapiens, UniProt P32298)).
For MAPK1 (Homo sapiens, UniProt P28482): remaining activity read 99.3%.
